Results from different studies.
Numbered parts are unrelated; each lists some results of a single study.

Block 1 — method: universal PBM; molecule type: double-stranded DNA, one strand shown; medium: in vitro; tested at: 600 nM; reading: higher = stronger binding
Target: Sal-like protein 4, full length isoform A (SALL4, Homo sapiens, UniProt Q9UJQ4, residues 1-1053)
UniProt Q9UJQ4, sequence (whole entry, looked up): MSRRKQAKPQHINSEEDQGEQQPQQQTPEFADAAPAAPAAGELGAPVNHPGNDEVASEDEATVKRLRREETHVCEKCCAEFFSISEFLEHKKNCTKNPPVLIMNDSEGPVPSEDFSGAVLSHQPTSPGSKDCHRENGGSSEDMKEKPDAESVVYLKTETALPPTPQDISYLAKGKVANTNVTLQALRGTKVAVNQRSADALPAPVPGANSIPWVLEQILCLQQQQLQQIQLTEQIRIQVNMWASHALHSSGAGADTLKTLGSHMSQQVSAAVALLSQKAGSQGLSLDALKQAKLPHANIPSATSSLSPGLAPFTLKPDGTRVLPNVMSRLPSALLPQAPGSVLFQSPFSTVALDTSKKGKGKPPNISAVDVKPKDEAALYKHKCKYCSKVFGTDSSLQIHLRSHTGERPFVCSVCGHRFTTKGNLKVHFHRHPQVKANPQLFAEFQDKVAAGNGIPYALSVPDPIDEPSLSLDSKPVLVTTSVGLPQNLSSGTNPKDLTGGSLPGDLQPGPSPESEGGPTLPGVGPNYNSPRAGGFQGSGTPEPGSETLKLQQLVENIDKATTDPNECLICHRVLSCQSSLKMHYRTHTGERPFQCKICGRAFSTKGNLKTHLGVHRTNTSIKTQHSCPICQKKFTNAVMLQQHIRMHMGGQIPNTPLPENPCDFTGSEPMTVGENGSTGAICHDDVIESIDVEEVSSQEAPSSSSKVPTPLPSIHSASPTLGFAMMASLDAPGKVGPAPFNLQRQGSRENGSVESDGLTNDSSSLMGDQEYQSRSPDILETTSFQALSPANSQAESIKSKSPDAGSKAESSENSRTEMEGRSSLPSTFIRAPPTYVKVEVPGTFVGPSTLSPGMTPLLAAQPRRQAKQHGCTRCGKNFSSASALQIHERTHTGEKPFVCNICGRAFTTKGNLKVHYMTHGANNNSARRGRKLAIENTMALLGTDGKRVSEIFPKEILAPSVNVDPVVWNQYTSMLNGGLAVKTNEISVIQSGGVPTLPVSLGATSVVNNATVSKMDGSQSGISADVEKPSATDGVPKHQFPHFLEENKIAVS
Setting: 8-mer, flanks averaged, mean of replicates
Sequence	E-score
AGTTTCAG	-0.0658
ACCTTATC	0.0858
CGTTTCAC	-0.112
CGGGGTGA	-0.139
TATACTCA	0.249
GAAGGCGA	-0.216
GCGTGCAA	-0.185
CCACCGTC	-0.356
AGTGTAAT	0.252
GTTTGCCA	-0.00023
AGATACAG	0.156
ACTGGGTG	-0.289
AACTATGA	0.307
ATTGACAA	0.193
GATTCCGA	-0.0348
GAACTTGA	0.119
GCTCGTGA	-0.163
CTACGACA	0.0431
CCACCTAG	-0.242
AGGTAGCG	-0.16
ATTATCAG	0.215
TAGCACTA	0.093
TGGTAACA	0.117
AAGGGAAA	0.205
GAGCTGGA	-0.271

Block 2 — method: RNA Bind-n-Seq; molecule type: RNA; medium: in vitro; tested at: 1 µM; setting: whole 134-nt RNA, ends assumed; added: 150 mM KCl; relative to: input library; reading: higher = stronger binding
Target: Ras GTPase-activating protein-binding protein 1, C-terminal RGG region (G3BP1, Homo sapiens, UniProt Q13283)
UniProt Q13283, sequence (whole entry, looked up): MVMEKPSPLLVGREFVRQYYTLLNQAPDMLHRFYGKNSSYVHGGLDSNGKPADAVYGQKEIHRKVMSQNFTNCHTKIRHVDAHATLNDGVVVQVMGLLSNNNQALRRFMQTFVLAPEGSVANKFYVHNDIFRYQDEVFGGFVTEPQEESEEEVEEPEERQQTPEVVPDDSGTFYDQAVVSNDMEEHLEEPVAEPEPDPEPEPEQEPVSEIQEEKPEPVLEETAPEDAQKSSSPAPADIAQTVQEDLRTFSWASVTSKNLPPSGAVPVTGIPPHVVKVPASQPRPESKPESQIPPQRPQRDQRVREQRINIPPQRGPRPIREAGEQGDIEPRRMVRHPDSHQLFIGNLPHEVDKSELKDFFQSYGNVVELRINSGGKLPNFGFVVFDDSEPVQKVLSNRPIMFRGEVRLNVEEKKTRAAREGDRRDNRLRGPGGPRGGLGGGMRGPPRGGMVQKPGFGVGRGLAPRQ
Shared flanks, not repeated: GGGAGUUCUACAGUCCGACGAUC … UGGAAUUCUCGGGUGUCAAGG
Sequence	log2 enrichment
CAACUUUAGAGGAGGAUCUGAUGGAUAUGGCAGUGGACGUGGAUUUGGGGAUGGCUAUAAUGGGUAUGGAGGAGGACCUGGAGGUGGCAA	-1.25
UCAUGUAUAGACAACGCCAUUAUUGACGAGAUCACUCCCAAGCGGAUUGGAGAUUGUCCCAAUAUUUAGACCUAUAGCAAGGCCUUGGGA	-0.477
UCCUGUGCUACACAUCGUAUGUACCGAAUCGGGAAAAAGGGUUUUUGGGAAAAAAAGGGAAAGUAUUAUGUUACGCCGUUCGGAUCUGCA	-0.871
UGGCCCUGGUGGCAUGCGGGGAGGAAGAGGUGGCCUCAUGGAUCGUGGUGGUCCCGGUGGAAUAUUCAGAGGUGGCCGUGGUGGAGACAG	1.46
UCCUGUGCUACACAUCGUAUGUACCGAAUCGGGGCCCCCCGGCCCCCCGGCCCCCCGGGAAAGUAUUAUGUUACGCCGUUCGGAUCUGCA	-1.31
AGUCCUGUGCUACACAUCGUAUGUACCGAAUCGGGGAAAAGGGGAAAAGGGAAAAGGGAAAGUAUUAUGUUACGCCGUUCGGAUCUGCAC	0.891
CCUCAAGUCCUGUGCUACACAUCGUAUGUACCGAAUCGGGGCGGCGGGCGGGAAAGUAUUAUGUUACGCCGUUCGGAUCUGCACUUCCAG	0.27
CUGUGCUACACAUCGUAUGUACCGAAUCGGGUUUUUUUGGGUUUUUUUGGUUUUUUUGGGGAAAGUAUUAUGUUACGCCGUUCGGAUCUG	-1.28
UAACUUUAGAGGAGGAUCUGAUGGAUAUGGCAGUGGACGUGGAUUUGGGGAUGGCUAUAAUGGCUAUGGAGGAGGACCUGGAGGUGGCAA	-0.753
GUCCUGUGCUACACAUCGUAUGUACCGAAUCGGGGAAAGGGGAAAGGGGAAAAAGGGGAAAGUAUUAUGUUACGCCGUUCGGAUCUGCAC	2.64
CCUGUGCUACACAUCGUAUGUACCGAAUCGGAAAAAAGGGGAAAAAAGGGGAAAAAAGGGAAAGUAUUAUGUUACGCCGUUCGGAUCUGC	-1.41
UCAAGUCCUGUGCUACACAUCGUAUGUACCGAAUCGGGGUUGGGGUUGGGGUUGGAAAGUAUUAUGUUACGCCGUUCGGAUCUGCACUUC	0.251
AGUCCUGUGCUACACAUCGUAUGUACCGAAUCGGGUGGGAAAAAGGGAAAAAAAGGGAAAGUAUUAUGUUACGCCGUUCGGAUCUGCACU	-0.208
UGGCCCUGGUGGCAUGCGGGGAGGAAGAGGUGGCCUCAUGGAUCGUGGUGGUCCCGGUGGAAUGUUCAGAGGUGGCCGAGGUGGAGACAG	2.76

Block 3 — method: protein-binding microarray; molecule type: double-stranded DNA, one strand shown; medium: in vitro; tested at: 250 nM; setting: 60-bp whole probe; added: salmon DNA 0.4 mg/ml; relative to: random background probes; reading: higher = stronger binding; shared flanks, not repeated: GCCTAGCAC … GTCTTGATTCGCTTGACGCTGCTG
Target: Interferon regulatory factor 5, full length, phosphomimetic (IRF5, Homo sapiens, UniProt Q13568-2, residues 1-514, K96S/S451D/S453D/S456D/S462D)
Sequence	log fluorescence [z-score]
TTTTCTCTTATTCTAACAGCGTGCTAG	1.99
TAAGAACTGAGTCTCGATTAGTGCTAG	0.7
TTAGATTTCGGGTATCAATTAGTGCTA	6.25
GACGATCTCAGTCCCGAGACGTGCTAG	-0.373
CACGATTTCAGTTTCGAGACGTGCTAG	7.14
GACGGTCTCGGACTGGGGGCGTGCTAG	0.295
GACGGACTGCTACTGCTGATGTGCTAG	-0.558
GACGGTATCCTTTTCCTAACGTGCTAG	0.504
TCATTCCTAATTCTCTTACTGTGCTAG	0.618
GACGATTTCGCGACTGGAGACGTGCTA	0.395
GACGGTTTTGGGTTTCGGGACGTGCTA	2.82
TTAGGTAGCGGTCTCGGTTAGTGCTAG	0.3
TTAGATTTCGGGACTGGATTAGTGCTA	2.74
TTTGCATTGCTTCTATAGGCGTGCTAG	0.578
TTAGAACTGAGTCTCGATTCGTGCTAG	0.308
TTAGGTCCCGGTCTCGGTTAGTGCTAG	0.0729
TTAGGACTGGGGTTCCGGTTAGTGCTA	0.0118
GGATTTCAGTTTCTCTTTCCGTGCTAG	6.49
GACGATTTCGAGACTGGAGACGTGCTA	1.29
TTAGAACTGGGGTAACGATTAGTGCTA	0.114
TCAACTTTCTTTTTTTCACTGTGCTAG	3.07
ATAGAACTGAGTCTCGATTAGTGCTAG	0.673
GACGGACTGGGGTATCGGGACGTGCTA	0.2
TTAGGTGTCGGGACTGGGTTAGTGCTA	-0.246
TCAGGTTCCGGTTTCGGTTAGTGCTAG	9.57

Block 4 — method: protein binding microarray; molecule type: double-stranded DNA, one strand shown; medium: in vitro; tested at: not given; relative to: not given; reading: higher = stronger binding
Target: Histone acetyltransferase KAT6A, winged helix 2, GST fusion (KAT6A, Homo sapiens, UniProt Q92794, residues 85-181)
Setting: 8-mer, flanks averaged, mean of 2 arrays, mostly near background
Target sequence (chain): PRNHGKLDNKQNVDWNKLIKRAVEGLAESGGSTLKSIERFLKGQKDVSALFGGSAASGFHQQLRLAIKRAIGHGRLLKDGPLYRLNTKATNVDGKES
Sequence	E-score
AATCTATA	0.0608
GACGACTA	-0.139
CAGTGCTC	0.0605
AGACTTCA	-0.233
ACCGGTCT	-0.137
GTGCCATA	-0.158
CCAAATTA	0.0454
AATGCTTA	-0.127
AGATCGAT	-0.133
AAACGAAC	0.13
TCCGGCGA	0.205
ACGCCACT	-0.0411
TACCGACA	-0.0575
CAAACGTC	-0.0699
AGCTACCC	-0.0821
CCATTCCG	0.0012
GGCTTTGA	0.0703
ATGGGGGG	-0.0669
TGCTAGAA	0.156
CCTAGGCC	-0.0182
CTACTGAA	-0.0383
TATGGGCA	0.0586
AGAGCGAA	0.131
AGGACGGG	-0.145
AAATCCTC	-0.0572

Block 5 — method: RNAcompete; molecule type: RNA; medium: in vitro; tested at: 20 nM; setting: 7-mer, probes averaged, single round; relative to: mean of 7-mers; reading: higher = stronger binding
Target: PABPC1L2, full length, GST fusion (mouse, UniProt A0ABA7IW68)
Residues (chain): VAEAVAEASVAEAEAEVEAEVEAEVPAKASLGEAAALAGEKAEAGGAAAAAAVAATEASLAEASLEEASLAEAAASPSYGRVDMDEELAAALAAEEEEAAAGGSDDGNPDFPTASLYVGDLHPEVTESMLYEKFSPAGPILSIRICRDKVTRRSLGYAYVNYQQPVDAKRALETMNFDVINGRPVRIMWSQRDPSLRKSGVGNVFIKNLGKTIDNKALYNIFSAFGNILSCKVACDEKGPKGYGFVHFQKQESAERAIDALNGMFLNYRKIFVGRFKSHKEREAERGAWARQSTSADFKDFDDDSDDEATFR
Sequence	7-mer Z-score
GAGAAUU	-0.101
UCGCAAC	-0.229
UUCUGAC	-0.47
GCAAACC	-0.108
ACAGAGG	0.53
UCGUCUU	-0.57
GGGGCAU	0.514
ACAACGC	-0.012
GUAGGAU	-0.0863
AGAUGUC	-0.306
GUUUAGG	-0.175
AGUGUUG	-0.113
AUGCAAG	0.0352
GCUAGCU	-0.226
CUCAGUG	-0.226
GGAAUGU	-0.0881
GGUCCAC	-0.208
UCAUUGC	-0.282
UAUAUUU	-0.277
GGUUCUU	-0.289
AAGAAAU	1.36
AGAGUUU	-0.412
UUCACUC	-0.373
CGAUUCC	-0.403
CCAUCUA	-0.249

Block 6 — method: protein-binding microarray; molecule type: double-stranded DNA, one strand shown; medium: in vitro; tested at: not given; reading: higher = stronger binding
Target: Protein max, full length (MAX, Homo sapiens, UniProt P61244-2, residues 1-151)
Setting: k-mer, scored over probes, only values ≥0.25
Sequence	E-score
ACGAGGAC	0.39
GCATGGTA	0.421
AACGTGTG	0.393
CATGAGTC	0.303
GCCCCACC	0.266
ACGCGGCC	0.26
CCTGCTCC	0.259
CTCGTGGC	0.448
GTGACCAC	0.341
GGGCGCAC	0.258
AAACGCAT	0.292
ATGTGAAT	0.293
CCGCGTGC	0.471
CACGTGTA	0.496
CCCCCTGC	0.291
CGCACACG	0.4
CACGGGGG	0.396
ATGTGCAG	0.331
CATGTTGA	0.34
CATGCTCG	0.403
AATGTGCA	0.28
ACGCGAGT	0.255
ACGTGTAA	0.419
CGTGACGA	0.309
CGTGCACA	0.379

A few entries again (block 2):
Sequence	log2 enrichment
CCUCAAGUCCUGUGCUACACAUCGUAUGUACCGAAUCGGGGCGGCGGGCGGGAAAGUAUUAUGUUACGCCGUUCGGAUCUGCACUUCCAG	0.27
UCCUGUGCUACACAUCGUAUGUACCGAAUCGGGAAAAAGGGUUUUUGGGAAAAAAAGGGAAAGUAUUAUGUUACGCCGUUCGGAUCUGCA	-0.871
AGUCCUGUGCUACACAUCGUAUGUACCGAAUCGGGUGGGAAAAAGGGAAAAAAAGGGAAAGUAUUAUGUUACGCCGUUCGGAUCUGCACU	-0.208
UGGCCCUGGUGGCAUGCGGGGAGGAAGAGGUGGCCUCAUGGAUCGUGGUGGUCCCGGUGGAAUAUUCAGAGGUGGCCGUGGUGGAGACAG	1.46
CAACUUUAGAGGAGGAUCUGAUGGAUAUGGCAGUGGACGUGGAUUUGGGGAUGGCUAUAAUGGGUAUGGAGGAGGACCUGGAGGUGGCAA	-1.25
UCAUGUAUAGACAACGCCAUUAUUGACGAGAUCACUCCCAAGCGGAUUGGAGAUUGUCCCAAUAUUUAGACCUAUAGCAAGGCCUUGGGA	-0.477
GUCCUGUGCUACACAUCGUAUGUACCGAAUCGGGGAAAGGGGAAAGGGGAAAAAGGGGAAAGUAUUAUGUUACGCCGUUCGGAUCUGCAC	2.64
CUGUGCUACACAUCGUAUGUACCGAAUCGGGUUUUUUUGGGUUUUUUUGGUUUUUUUGGGGAAAGUAUUAUGUUACGCCGUUCGGAUCUG	-1.28
UAACUUUAGAGGAGGAUCUGAUGGAUAUGGCAGUGGACGUGGAUUUGGGGAUGGCUAUAAUGGCUAUGGAGGAGGACCUGGAGGUGGCAA	-0.753
UGGCCCUGGUGGCAUGCGGGGAGGAAGAGGUGGCCUCAUGGAUCGUGGUGGUCCCGGUGGAAUGUUCAGAGGUGGCCGAGGUGGAGACAG	2.76
AGUCCUGUGCUACACAUCGUAUGUACCGAAUCGGGGAAAAGGGGAAAAGGGAAAAGGGAAAGUAUUAUGUUACGCCGUUCGGAUCUGCAC	0.891
UCAAGUCCUGUGCUACACAUCGUAUGUACCGAAUCGGGGUUGGGGUUGGGGUUGGAAAGUAUUAUGUUACGCCGUUCGGAUCUGCACUUC	0.251
UCCUGUGCUACACAUCGUAUGUACCGAAUCGGGGCCCCCCGGCCCCCCGGCCCCCCGGGAAAGUAUUAUGUUACGCCGUUCGGAUCUGCA	-1.31
CCUGUGCUACACAUCGUAUGUACCGAAUCGGAAAAAAGGGGAAAAAAGGGGAAAAAAGGGAAAGUAUUAUGUUACGCCGUUCGGAUCUGC	-1.41
